Measured values from different studies.
Each numbered part is a random draw from the data of one study; scales do not carry over between parts. Substitutions count along the parent as printed.

Sample 1
Target: ABI1, truncated, D143A, DHFR fusion (Arabidopsis thaliana)
Technique: DHFR PCA, deep sequencing
Medium: yeast
Setting: methotrexate growth selection, single substitutions
Together with: (+)-ABA 0.0091 µM
Baseline: wild-type fitted maximum
Direction: higher = stronger binding
Starting sequence: PYL1, truncated, DHFR fusion (Arabidopsis thaliana); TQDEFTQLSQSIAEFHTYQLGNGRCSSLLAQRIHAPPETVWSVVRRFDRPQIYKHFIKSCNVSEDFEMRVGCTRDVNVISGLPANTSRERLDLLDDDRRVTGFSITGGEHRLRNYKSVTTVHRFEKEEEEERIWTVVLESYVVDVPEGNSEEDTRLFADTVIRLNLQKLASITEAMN; partner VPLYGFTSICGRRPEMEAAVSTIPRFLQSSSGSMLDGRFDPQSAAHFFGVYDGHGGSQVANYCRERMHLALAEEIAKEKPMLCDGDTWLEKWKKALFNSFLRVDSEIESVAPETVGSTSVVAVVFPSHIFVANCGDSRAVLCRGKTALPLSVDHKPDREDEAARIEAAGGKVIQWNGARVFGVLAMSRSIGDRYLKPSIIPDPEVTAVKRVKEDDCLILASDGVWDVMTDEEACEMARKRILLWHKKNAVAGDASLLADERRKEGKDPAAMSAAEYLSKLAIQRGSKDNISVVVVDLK
| Substitution | relative binding score [%] |
| --- | --- |
| M68D | 0.347 |
| R98A | 5.09 |
| V62F | -2.2 |
| P83C | 10.1 |
| N114P | -1.73 |
| P36Q | 9.34 |
| I162P | -3.31 |
| L94G | -4.36 |
| S26D | -0.874 |
| K116F | -7.36 |
| F124H | -7.3 |
| S42E | 34.6 |
| E14Q | 8.54 |
| E4K | 0.171 |
| S140M | 1.51 |
| V137S | -2 |
| N177D | 11.9 |
| G23M | 0.889 |
| I172A | -2.29 |
| D75S | 16.5 |
| A175G | 31.6 |
| L169A | -2.05 |
| D153F | -3.66 |
| E174Q | 0.14 |

Sample 2
Target: RNA binding protein fox-1 homolog 2, RRM domain, GST-SBP tag (RBFOX2, Homo sapiens, UniProt O43251-10, residues 100-194)
Technique: RNA Bind-n-Seq
Form: RNA
Medium: in vitro
Tested at: 365 nM
Setting: natural RNA segment, single round, ends assumed
Baseline: no-protein control
Direction: higher = stronger binding
All sequences stand within: GGGAGUUCUACAGUCCGACGAUC … UGGAAUUCUCGGGUGCCAA
Residues (chain): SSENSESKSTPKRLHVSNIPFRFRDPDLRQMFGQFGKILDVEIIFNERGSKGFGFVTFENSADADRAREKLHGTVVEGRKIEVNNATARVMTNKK
| Oligonucleotide | RBNS enrichment (R) |
| --- | --- |
| GCUGGAGAAAGAAGGAAGAAAUGGUUUUCUUAAAUACCUACAAAAAAGUUACUGUGGUAUCUAUGAGUUAUCAUCUUAGCUGUGUUAAAAAUGAAUUUUUACUAUGGCAG | 0.457 |
| AGGGUGCCUGACCUGUGUGCCGGCUGCUCACUGCUGUGACCAGCAGCCGAGCCCUUGGCCCUAGCCCUUGCUGCGCAGAACAGCUUGCUGGCAGCUGGCAUCGUGUCGCU | 0.408 |
| UUAAUUCUCAUUAUAUUUCUAUACUGAAAGAAGAUUUUUAACGAAGGGAAAAACAACAGCAAUAACAUUCAUAUCUCUGGAGCAGCUAACUCAUACACGUAAUGUCUGCU | 0.321 |
| GGGUCCUGUGCAUUUGCCACAGUGGAAGACUACCUACAUUAGCUAUGCACUUCAAGAGCUCACACUCACAUUGUGGCAAACAGUCAACAUGGAAGUAGACCGGCUCUGCU | 0.226 |
| UGCUUACAGAAAAUAUAGCCAUGAUUGAAAUCAAAUAGUAAAGGCUGUUCUGGCUUUUUAUCUUCUUAGCUCAUCUUAAAUAAGCAGUACACUUGGAUGCAGUGCGUCUG | 0.523 |
| CUACCCUUCCCCUUCCCCUCCCUUCCCUCUGCAAGGCUCAAGCCUGGUUUGCACUCAGUGUAGAAGAGCUCAGACGGGUGCCAGAUUAGCACUGAGCGGUAAAGGGUCUC | 0.837 |
| UCCUAGUUUUAUAACAUUACCAUCCUUCGUUUUGAACUACAGAUGUUGUAGUGGGUUUUGGAGGAGGGAGUGGAGUAAGAUGCCCUCCCACUUUUAUCAGUUUAGUAGUA | 1.18 |
| AUACCUGGUGCUGUCCCUGGGCUCUGCUGGUCAUGUGAGGCAGCCUCGGAGAAGGAAGCAGAGGGUGUAAUGACUGGCACACCUGGACAGCUUUUCUCCAUCCGCAGACA | 0.683 |

Sample 3
Target: Histone acetyltransferase KAT6A, winged helix 1, GST fusion (KAT6A, Homo sapiens, UniProt Q92794, residues 1-85)
Technique: protein binding microarray
Form: double-stranded DNA, one strand shown
Medium: in vitro
Tested at: not given
Setting: 8-mer, flanks averaged, mean of 2 arrays, mostly near background
Baseline: not given
Direction: higher = stronger binding
Construct (chain): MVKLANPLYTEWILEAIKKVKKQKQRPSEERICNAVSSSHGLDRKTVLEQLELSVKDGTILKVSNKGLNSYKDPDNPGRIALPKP
| Oligonucleotide | E-score |
| --- | --- |
| TCACGGGA | 0.237 |
| GAGATCCC | 0.0192 |
| ACGGTAAA | 0.241 |
| CGTTGAGC | 0.112 |
| TCAACTAA | -0.194 |
| GAACAAGC | 0.00206 |
| TATGGGAA | -0.147 |
| ACGAAAAT | -0.181 |
| AGGTTTGA | -0.159 |
| CCCTGAAA | -0.128 |
| ACGGCAGA | 0.258 |
| ATGGCTCG | -0.067 |
| ACGATAGA | -0.153 |
| CGTGAAAC | 0.111 |
| CATCCGGG | -0.0227 |
| CGCTCGCC | 0.228 |
| ATTATACG | 0.16 |
| CATGGGTA | -0.0359 |
| TCGTTGAA | -0.184 |
| ATACGCAC | 0.134 |
| GAGCAAAA | -0.197 |
| TGTGACAA | -0.137 |
| AGACAACA | -0.211 |
| GGGATATA | -0.039 |

Sample 4
Target: Interferon regulatory factor 7, full length, phosphomimetic (IRF7, Homo sapiens, UniProt Q92985, residues 1-503, S101K/S471D/S472D/S475D/S476D/S477D/S483D/S484D/S487D)
Technique: protein-binding microarray
Form: double-stranded DNA, one strand shown
Medium: in vitro
Tested at: 250 nM
Setting: 60-bp whole probe
Together with: salmon DNA 0.4 mg/ml
Baseline: random background probes
Direction: higher = stronger binding
All sequences stand within: GCCTAGCAC … GTCTTGATTCGCTTGACGCTGCTG
Target sequence (chain): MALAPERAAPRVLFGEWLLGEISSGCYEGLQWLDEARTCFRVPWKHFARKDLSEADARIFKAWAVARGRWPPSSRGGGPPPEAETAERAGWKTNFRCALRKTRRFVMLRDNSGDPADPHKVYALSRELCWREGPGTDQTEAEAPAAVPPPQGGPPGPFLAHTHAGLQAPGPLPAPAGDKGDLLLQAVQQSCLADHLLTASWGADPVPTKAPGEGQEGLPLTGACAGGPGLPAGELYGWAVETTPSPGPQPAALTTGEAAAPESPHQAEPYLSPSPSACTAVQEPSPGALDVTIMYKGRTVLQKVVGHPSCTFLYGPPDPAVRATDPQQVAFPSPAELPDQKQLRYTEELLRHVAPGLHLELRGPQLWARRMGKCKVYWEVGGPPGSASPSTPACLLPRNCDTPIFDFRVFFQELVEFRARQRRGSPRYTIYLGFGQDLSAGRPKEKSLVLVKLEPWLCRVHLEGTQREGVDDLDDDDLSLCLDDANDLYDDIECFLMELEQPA
| Oligonucleotide | log fluorescence [z-score] |
| --- | --- |
| GGCTGTTTGGTCCTGATCCTGTGCTAG | -0.724 |
| GGGGATAAACTTAATGGATGGTGCTAG | -0.403 |
| GTAGGACTGGGGACTGGGTTAGTGCTA | -0.521 |
| GACGGTTTCGGTATCGTGACGTGCTAG | 10.6 |
| GACGGACTGCTTATCCCGACGTGCTAG | -0.219 |
| TTAGCTCTCAGTCTCGATTAGTGCTAG | 0.92 |
| TTGAATCTCCCATTATATTTGTGCTAG | 0.295 |
| TTAGGACTGCTTCCCCTTTAGTGCTAG | 0.581 |
| GACGTACTGGGTTTCGGGACGTGCTAG | 2.31 |
| TTGTCTCTGTCCCTGTTTCTGTGCTAG | 1.33 |
| TCCATTTTCTAAATGCCCTGGTGCTAG | 1.76 |
| GACGGTTTCGGTCGCGGGACGTGCTAG | 3.73 |
| TCACTTCTCTTTTTGCTACTGTGCTAG | 2.1 |
| GACGAACTGAGCCTCGAGACGTGCTAG | -0.08 |
| GAAGATTTCAGACTGGAGACGTGCTAG | -0.212 |
| TCAGGTATCCTTATCCTTTAGTGCTAG | 0.459 |
| GACGGTATCGGTCCCGGGACGTGCTAG | 0.204 |
| GACGGTATCCTGATCCTGACGTGCTAG | -0.242 |

Some of these lines once more (sample 4):
| Oligonucleotide | log fluorescence [z-score] |
| --- | --- |
| GACGGACTGCTTATCCCGACGTGCTAG | -0.219 |
| TTAGCTCTCAGTCTCGATTAGTGCTAG | 0.92 |
| TTGAATCTCCCATTATATTTGTGCTAG | 0.295 |
| TTAGGACTGCTTCCCCTTTAGTGCTAG | 0.581 |
| GACGTACTGGGTTTCGGGACGTGCTAG | 2.31 |
| TTGTCTCTGTCCCTGTTTCTGTGCTAG | 1.33 |
| TCCATTTTCTAAATGCCCTGGTGCTAG | 1.76 |
| GACGGTTTCGGTCGCGGGACGTGCTAG | 3.73 |
| TCACTTCTCTTTTTGCTACTGTGCTAG | 2.1 |
| GACGAACTGAGCCTCGAGACGTGCTAG | -0.08 |
| GAAGATTTCAGACTGGAGACGTGCTAG | -0.212 |
